Literature values, collected from citations in different studies.
Each line is one published result; not all experiments were run side by side. ± gives the spread as reported. Converted amounts (≈) assume the structure as drawn.
ADORA1: Adenosine receptor A1 (ADORA1, Homo sapiens, UniProt P30542)
Chain of UniProt P30542 (whole entry, looked up): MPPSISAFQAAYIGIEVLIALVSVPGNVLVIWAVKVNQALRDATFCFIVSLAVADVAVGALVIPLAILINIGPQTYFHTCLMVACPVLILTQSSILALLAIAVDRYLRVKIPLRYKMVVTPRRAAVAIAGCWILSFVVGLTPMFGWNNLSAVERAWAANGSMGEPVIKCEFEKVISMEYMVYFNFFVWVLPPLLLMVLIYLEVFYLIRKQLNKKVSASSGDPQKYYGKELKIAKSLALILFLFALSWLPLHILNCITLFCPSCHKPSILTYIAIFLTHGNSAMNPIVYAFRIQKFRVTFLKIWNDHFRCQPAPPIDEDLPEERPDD
ACHE: Acetylcholinesterase (ACHE, Homo sapiens, UniProt P22303)
Chain of UniProt P22303 (whole entry, looked up): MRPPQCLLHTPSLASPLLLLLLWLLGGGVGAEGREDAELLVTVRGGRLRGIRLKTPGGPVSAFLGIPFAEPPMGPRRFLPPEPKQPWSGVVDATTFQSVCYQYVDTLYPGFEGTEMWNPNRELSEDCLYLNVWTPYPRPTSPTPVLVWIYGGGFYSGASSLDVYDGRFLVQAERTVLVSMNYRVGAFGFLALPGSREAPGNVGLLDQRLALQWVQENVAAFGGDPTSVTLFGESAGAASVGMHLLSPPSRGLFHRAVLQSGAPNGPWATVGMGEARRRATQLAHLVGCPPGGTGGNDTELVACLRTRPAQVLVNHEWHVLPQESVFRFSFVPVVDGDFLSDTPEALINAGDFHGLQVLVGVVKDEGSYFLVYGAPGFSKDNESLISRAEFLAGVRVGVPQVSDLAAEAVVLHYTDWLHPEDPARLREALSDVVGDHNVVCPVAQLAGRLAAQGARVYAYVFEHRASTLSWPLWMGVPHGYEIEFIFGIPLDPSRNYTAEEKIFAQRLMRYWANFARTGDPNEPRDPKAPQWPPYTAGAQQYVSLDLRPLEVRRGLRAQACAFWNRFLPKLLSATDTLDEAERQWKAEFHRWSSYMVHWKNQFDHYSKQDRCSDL
Chain of UniProt P41595 (whole entry, looked up): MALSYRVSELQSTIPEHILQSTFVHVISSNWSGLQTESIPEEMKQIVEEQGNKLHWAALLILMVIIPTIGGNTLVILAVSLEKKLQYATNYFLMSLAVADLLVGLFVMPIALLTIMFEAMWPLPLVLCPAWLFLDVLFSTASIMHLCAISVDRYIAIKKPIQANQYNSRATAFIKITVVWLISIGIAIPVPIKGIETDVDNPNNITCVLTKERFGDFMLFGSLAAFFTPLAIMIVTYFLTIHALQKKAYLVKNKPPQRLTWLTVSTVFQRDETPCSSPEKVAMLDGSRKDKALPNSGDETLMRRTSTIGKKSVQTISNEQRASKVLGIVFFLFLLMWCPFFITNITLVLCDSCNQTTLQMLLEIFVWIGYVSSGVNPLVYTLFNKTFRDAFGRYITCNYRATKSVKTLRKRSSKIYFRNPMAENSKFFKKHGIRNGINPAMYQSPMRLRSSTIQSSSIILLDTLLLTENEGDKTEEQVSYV

`C[C@@H]1CN([C@@H](c2cccc(O)c2)c2cccc(C(=O)N(C)c3cccc(F)c3)c2)[C@@H](C)CN1Cc1ccccc1` gave a Ki of 1.58 nM (mu opioid receptor rat).
`CCOC(=O)[C@@]12C[C@@H]1[C@@H](n1cnc3c(NC(C4CC4)C4CC4)nc(Cl)nc31)[C@H](O)[C@@H]2O` gave a Ki of 360 ± 74 nM (ADORA1; binding; with: [3H]R-PIA).
`CC[C@H](C)[C@H](NC(=O)CNC(=O)[C@H](CS)NC(=O)CNC(=O)[C@H](CO)NC(=O)[C@@H](NC(=O)[C@@H](NC(=O)[C@@H](NC(=O)[C@H](CC(N)=O)NC(=O)[C@@H](NC(=O)[C@H](CO)NC(=O)[C@H](CS)NC(=O)[C@H](C)NC(=O)[C@H](Cc1ccccc1)NC(=O)[C@H](CCCNC(=N)N)NC(=O)[C@H](CS)NC(=O)[C@H](CCCCN)NC(=O)[C@@H](NC(=O)CNC(=O)[C@@H](N)CO)[C@@H](C)CC)[C@@H](C)CC)[C@@H](C)O)[C@@H](C)O)[C@@H](C)CC)C(=O)N[C@@H](CO)C(=O)N[C@@H](CS)C(=O)N[C@@H](CCCCN)C(=O)N[C@@H](Cc1ccccc1)C(=O)O` gave an MIC of 128 µM (≈ 320 µg/mL) (Staphylococcus aureus).
For `CCC(=O)OC1C(=O)C2(C)C(O)CC3OCC3(OC(C)=O)C2C(OC(=O)c2cccc(OC(F)(F)F)c2)C2(O)CC(OC(=O)C(O)C(C=C(C)C)NC(=O)OC(C)(C)C)C(C)=C1C2(C)C` (centres unmarked), the IC50 was 0.37 nM (MCF7; cytotoxicity).
With `C=CCN1C[C@H](C)N([C@@H](c2cccc(O)c2)c2cccc(C(=O)N(C)c3cccc(F)c3)c2)C[C@H]1C` the Ki was 0.46 nM (rat kappa opioid receptor; binding).
`O=C(Cn1cc(CN2C(=O)C(=O)c3cc(F)ccc32)nn1)NCc1ccccc1Cl` has a Ki of 155 nM (ACHE).
`CC[C@H](C)[C@H](NC(=O)[C@H](CCCN)NC(=O)[C@H](CCCNC(=N)N)NC(=O)[C@@H]1CCCN1C(=O)[C@@H]1CCCN1C(=O)[C@H](CCCNC(=N)N)NC(=O)[C@@H]1CCCN1C(=O)[C@H](CCCNC(=N)N)NC(=O)[C@@H]1CCCN1C(=O)[C@H](CC(C)C)NC(=O)[C@H](Cc1ccc(O)cc1)NC(=O)[C@@H]1CCCN1C(=O)[C@@H]1CCCN1C(=O)[C@H](CCCCN)NC(=O)[C@H](CC(=O)O)NC(=O)[C@@H](N)C(C)C)C(=O)N[C@@H](Cc1ccc(O)cc1)C(=O)N[C@@H](CC(N)=O)C(=O)N[C@@H](CCCN)C(N)=O`: tolerability “not toxic” (mouse; subcutaneous, 600 mg/kg total, outcome: not toxic).
The Ki of `CC(C)CCCC(C)C1CCC2C3CCC4CC(OC5OC(COS(=O)(=O)O)C(OS(=O)(=O)O)C(OS(=O)(=O)O)C5OC5OC(COS(=O)(=O)O)C(OS(=O)(=O)O)C(OC6OC(COS(=O)(=O)O)C(OS(=O)(=O)O)C(OC7OC(COS(=O)(=O)O)C(OS(=O)(=O)O)C(OS(=O)(=O)O)C7OS(=O)(=O)O)C6OS(=O)(=O)O)C5OS(=O)(=O)O)CCC4(C)C3CCC12C` (centres unmarked) is reported as 59 nM (heparanase).
`CNC(=O)[C@@]12C[C@@H]1[C@@H](n1cnc3c(NC(C4CC4)C4CC4)nc(Cl)nc31)[C@H](O)[C@@H]2O` gave a Ki of 23 nM (5-hydroxytryptamine receptor 2B (HTR2B, Homo sapiens, UniProt P41595); binding; with: [3H]LSD).
`CC(=O)OC1C(=O)C2(C)C(O)CC3OCC3(OC(C)=O)C2C(OC(=O)c2cccc(OC(F)(F)F)c2)C2(O)CC(OC(=O)C(O)C(C=C(C)C)NC(=O)OC(C)(C)C)C(C)=C1C2(C)C` (centres unmarked) has an IC50 of 0.98 nM (MCF7; cytotoxicity).
`O=C(Cn1cc(COc2ccc3ccc(=O)oc3c2)nn1)Nc1ccccc1Cl` has a Ki of 29.4 nM (ACHE; enzyme activity, inhibitor).
The Ki of `COC(=O)C1C2CCC(CC1c1ccc(Cl)c(Cl)c1)S2` (centres unmarked) is reported as 5.7 nM (dopamine transporter; binding).
The Ki of `OC[C@@]12C[C@@H]1[C@@H](n1cnc3c(N[C@@H](C4CCC4)C4CC4)nc(Cl)nc31)[C@H](O)[C@@H]2O` is reported as 144 ± 32 nM (ADORA1; binding; with: [3H]R-PIA).
`COc1ccc(/C=C/C(=O)OC(=O)/C=C/c2ccc(OC)cc2OC)c(OC)c1` gave a Ki of 8300 ± 940 nM (ACHE; enzyme activity, inhibitor).

For quick reference, copied from above:
`O=C(Cn1cc(CN2C(=O)C(=O)c3cc(F)ccc32)nn1)NCc1ccccc1Cl` has a Ki of 155 nM (ACHE).
